{"data": "Measured values pooled from the literature", "target": "Myotonin-protein kinase (DMPK, Homo sapiens, UniProt Q09013)", "note": "Protocols differ between the studies behind these lines."}
{"SMILES": "NC(=O)[C@@H](O)C[C@H]1CCc2sc3ncnc(O[C@H]4CC[C@H](N5CCOCC5)CC4)c3c21", "assay": "enzyme activity, inhibitor", "conditions": "10 µM", "quantity": "inhibition", "result": "3%"}
{"SMILES": "C=CC(=O)N1CCCC(n2c(=O)c3ncccc3n(Cc3ccc(Oc4ccccc4)cc3)c2=O)C1 (stereo not shown)", "assay": "cell-free assay, competition with immobilised ligand", "conditions": "1 µM", "quantity": "remaining binding", "result": "100%"}
{"SMILES": "O=C(Cc1ccc(OCc2ccccc2)cc1)NC1(C(=O)O)CCN(C(=O)c2ccc(-c3cccc(Cl)c3)cc2)CC1", "assay": "enzyme activity, inhibitor", "conditions": "10 µM", "quantity": "activity vs control", "result": "89%"}
{"SMILES": "COc1cc(Nc2nc(C)cc(-c3cnn4nc(OC)ccc34)n2)cc(C(F)(F)F)c1", "assay": "inhibitor", "conditions": "1 µM", "how to read": "relative to: control", "quantity": "remaining activity", "result": "100%"}
{"SMILES": "CNC(=O)C1CCN(c2cc(C)c(F)cc2NC(=O)c2ccc(-c3cc(O)ccc3C)c(C)c2)CC1", "assay": "binding, competition with immobilised ligand", "conditions": "1 µM", "quantity": "remaining binding", "result": "100%"}
{"SMILES": "Nc1ncc(-c2cc(-c3cnn(CC(F)(F)F)c3)ncc2F)nc1C(=O)NC1CNCC(F)C1 (stereo not shown)", "assay": "enzyme activity", "conditions": "1 µM", "how to read": "relative to: DMSO control", "quantity": "remaining activity", "result": "93.3%"}
{"SMILES": "CNC1C[S+]2CC[S+]3CC[S+](C1)[Ru-4]321([N]=C=S)[n]2c3ccc(OC)cc3c3c4c(c5cc(F)c[n+]1c5c32)C(=O)NC4=O (stereo not shown)", "assay": "KinomeScan", "conditions": "0.1 µM", "how to read": "relative to: untreated", "quantity": "remaining binding", "result": "99%"}
{"SMILES": "C=CC(=O)N1CCc2ccc(-n3c(=O)ccc4cnc5ccc(-c6cnn(C)c6)cc5c43)cc21", "assay": "KINOMEscan", "conditions": "1 µM", "how to read": "relative to: DMSO control", "quantity": "remaining binding", "result": "95%"}
{"SMILES": "CN1CC[C@@H](COc2cnc(C#N)cc2-c2ccn3nc(NC(=O)C4CC4)cc3c2)C1", "assay": "inhibitor, KinaseProfiler panel", "conditions": "1 µM", "quantity": "inhibition", "result": "0%"}
{"SMILES": "Nc1ncc2c(n1)-c1c([nH]c3ccc(C4=CCOCC4)cc13)CCC2", "assay": "binding, competition with immobilised ligand", "conditions": "1 µM", "quantity": "remaining binding", "result": "100%"}
{"SMILES": "CCn1cc(C(=O)O)c(=O)c2c(N)c(F)c(NC3CCCCC3)cc21", "assay": "kinase activity", "conditions": "0.1 µM, added: ATP at Km", "quantity": "inhibition", "result": "-9.7%"}
{"SMILES": "COc1ccc(C(=O)/C=C/c2ccccc2-c2c[nH]c3ccc(C#N)cc23)c(O)c1", "assay": "enzyme activity, inhibitor", "conditions": "20 µM", "quantity": "inhibition", "result": "-10%"}
{"SMILES": "C=CC(=O)N1Cc2nc(-c3cc(-c4cc(Cl)cnc4Cl)c(F)cc3F)n(-c3ccncn3)c2C1", "assay": "cell-free assay, inhibitor", "conditions": "1 µM", "quantity": "inhibition", "result": "-1.4%"}
{"note": "Repeated from above:"}
{"SMILES": "NC(=O)[C@@H](O)C[C@H]1CCc2sc3ncnc(O[C@H]4CC[C@H](N5CCOCC5)CC4)c3c21", "assay": "enzyme activity, inhibitor", "conditions": "10 µM", "quantity": "inhibition", "result": "3%"}
{"SMILES": "COc1cc(Nc2nc(C)cc(-c3cnn4nc(OC)ccc34)n2)cc(C(F)(F)F)c1", "assay": "inhibitor", "conditions": "1 µM", "how to read": "relative to: control", "quantity": "remaining activity", "result": "100%"}
